Assay results of several laboratories.
Every numbered part comes from another study and shows a few of its results, in no order. “And” joins repeats or separate records; there may be more than shown.
Chain of UniProt P41595 (whole entry, looked up): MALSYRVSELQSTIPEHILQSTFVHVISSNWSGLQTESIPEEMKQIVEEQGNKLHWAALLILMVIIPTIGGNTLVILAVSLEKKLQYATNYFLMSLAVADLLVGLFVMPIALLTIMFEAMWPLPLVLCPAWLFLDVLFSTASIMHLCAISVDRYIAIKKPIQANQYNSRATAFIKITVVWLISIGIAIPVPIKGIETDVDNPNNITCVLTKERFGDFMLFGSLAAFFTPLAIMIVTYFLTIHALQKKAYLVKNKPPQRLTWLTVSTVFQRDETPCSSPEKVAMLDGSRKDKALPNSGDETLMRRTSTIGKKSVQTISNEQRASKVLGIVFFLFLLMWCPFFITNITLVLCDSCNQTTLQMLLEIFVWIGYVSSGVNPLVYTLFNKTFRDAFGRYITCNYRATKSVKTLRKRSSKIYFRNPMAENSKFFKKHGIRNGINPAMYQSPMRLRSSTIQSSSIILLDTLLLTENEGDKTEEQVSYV
Chain of UniProt P46098 (whole entry, looked up): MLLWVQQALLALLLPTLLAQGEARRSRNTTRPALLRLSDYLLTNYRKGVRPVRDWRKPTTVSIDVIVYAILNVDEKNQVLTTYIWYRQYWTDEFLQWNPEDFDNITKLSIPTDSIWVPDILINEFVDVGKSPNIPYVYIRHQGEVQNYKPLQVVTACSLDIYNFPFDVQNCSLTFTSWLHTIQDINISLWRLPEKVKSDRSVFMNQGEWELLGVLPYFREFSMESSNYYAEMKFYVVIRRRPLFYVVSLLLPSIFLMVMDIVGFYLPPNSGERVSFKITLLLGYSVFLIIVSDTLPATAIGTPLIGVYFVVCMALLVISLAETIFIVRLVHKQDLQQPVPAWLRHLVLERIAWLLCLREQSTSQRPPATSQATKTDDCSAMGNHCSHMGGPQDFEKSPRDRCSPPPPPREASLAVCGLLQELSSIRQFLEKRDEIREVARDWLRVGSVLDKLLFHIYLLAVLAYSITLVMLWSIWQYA
Chain of UniProt P28221 (whole entry, looked up): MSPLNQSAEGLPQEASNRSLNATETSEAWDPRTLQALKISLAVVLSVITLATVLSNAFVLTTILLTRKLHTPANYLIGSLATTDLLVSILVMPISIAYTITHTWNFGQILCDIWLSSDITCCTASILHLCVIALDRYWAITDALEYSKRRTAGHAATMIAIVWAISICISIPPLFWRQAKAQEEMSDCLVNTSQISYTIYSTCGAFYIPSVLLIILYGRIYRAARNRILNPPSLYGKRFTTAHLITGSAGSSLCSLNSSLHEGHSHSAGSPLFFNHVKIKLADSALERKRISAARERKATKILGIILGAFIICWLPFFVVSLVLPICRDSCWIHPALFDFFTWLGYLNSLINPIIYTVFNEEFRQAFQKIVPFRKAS

Sample 1
SMILES: CNC(=O)Nc1ccc2c(c1)[C@]1(CC2)OC(=O)N(CC(=O)N(Cc2ccc(F)cc2)[C@@H](C)C(F)(F)F)C1=O
Effect on: binding
Method: radioligand binding
Tested at: 10 µM
| target | inhibition [%] |
| --- | --- |
| 5-hydroxytryptamine receptor 2B (HTR2B, Homo sapiens, UniProt P41595) | 29.2 |
| 5-hydroxytryptamine receptor 1D (HTR1D, Homo sapiens, UniProt P28221) | 2.22 |
| 5-hydroxytryptamine receptor 3A (HTR3A, Homo sapiens, UniProt P46098) | -13 |

Sample 2
Target: Beta-1 adrenergic receptor (ADRB1, Homo sapiens, UniProt P08588)
Chain of UniProt P08588 (whole entry, looked up): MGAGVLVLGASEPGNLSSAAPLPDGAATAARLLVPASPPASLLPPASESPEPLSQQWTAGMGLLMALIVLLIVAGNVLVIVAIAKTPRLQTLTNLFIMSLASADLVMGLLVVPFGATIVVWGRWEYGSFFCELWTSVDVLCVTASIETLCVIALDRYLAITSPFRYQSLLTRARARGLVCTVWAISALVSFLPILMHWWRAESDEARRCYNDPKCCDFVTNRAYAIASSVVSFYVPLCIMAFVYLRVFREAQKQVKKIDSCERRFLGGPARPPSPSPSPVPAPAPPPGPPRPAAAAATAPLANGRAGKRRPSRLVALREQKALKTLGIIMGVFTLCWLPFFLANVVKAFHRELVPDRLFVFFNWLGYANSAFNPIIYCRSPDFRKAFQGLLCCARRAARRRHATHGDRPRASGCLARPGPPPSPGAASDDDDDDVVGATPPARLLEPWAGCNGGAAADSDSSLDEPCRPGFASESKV
Mode: antagonist
| SMILES | IC50 |
| --- | --- |
| COc1ccccc1N1CCN(CC(=O)Nc2cc(C)ccc2C)CC1 | ≥ 100 µM |
| COc1ccccc1N1CCN(CC(O)COc2cccc3ccccc23)CC1 (centres unmarked) | ≥ 100 µM |
| COc1ccccc1N1CCN([S+](=O)([O-])c2c(C)cc(C)cc2C)CC1 | ≥ 100 µM |
| O=C(Nc1ccc(-c2csc3c(=O)cc(N4CCOCC4)oc23)cc1)c1ccc(F)c(F)c1Nc1ccc(I)cc1F | ≥ 100 µM |
| CN(C)c1cccc(C(=O)N2CCC3(CC2)NC(=O)N(c2cccc(Cl)c2)N3)c1 | ≥ 100 µM |
| Cn1c(=O)c2c(ncn2CCCNCC(O)c2cc(O)cc(O)c2)n(C)c1=O (centres unmarked) | ≥ 100 µM |
| Cc1cc2c(-c3cccc(O)c3)nc(-c3c(C)noc3C)cc2[nH]1 | ≥ 100 µM |
| O=C(c1nc(-c2ccccc2)cc2[nH]ccc12)N1CCOCC1 | ≥ 100 µM |

Sample 3
SMILES: CC(C)(C(=O)O)[C@H](NC(=O)Cc1cccc(I)c1)c1ccc2oc(=O)[nH]c2c1
Method: Incucyte 3D growth
Tested at: 30 µM
Direction: higher = more growth
| cell line | setting | spheroid area |
| --- | --- | --- |
| PC-9 | 60 h | 4.96e+08 a.u. and 4.68e+08 a.u. and 4.65e+08 a.u. and 4.88e+08 a.u. and 4.76e+08 a.u. and 4.75e+08 a.u. |
| NCI-H1437 | 150 h | 3.54e+07 a.u. and 4.52e+07 a.u. and 3.33e+07 a.u. and 3.05e+07 a.u. and 3.28e+07 a.u. and 3.97e+07 a.u. |
| NCI-H358 | 270 h | 1.23e+07 a.u. and 1.18e+07 a.u. and 1.1e+07 a.u. |
| A375 | 24 h | 1.32e+07 a.u. and 1.14e+07 a.u. and 1.67e+07 a.u. and 7.84e+06 a.u. and 6.13e+06 a.u. and 1.26e+07 a.u. |
| A375 | 342.52 h | 1.86e+08 a.u. and 1.74e+08 a.u. and 1.7e+08 a.u. and 1.68e+08 a.u. and 1.66e+08 a.u. and 1.93e+08 a.u. |
| KP-4 | 282 h | 9.17e+07 a.u. and 4.96e+07 a.u. and 1.08e+08 a.u. and 6.97e+07 a.u. and 7.11e+07 a.u. and 2.7e+07 a.u. |
| PC-9 | 186 h | 1.67e+09 a.u. and 1.54e+09 a.u. and 1.61e+09 a.u. and 1.68e+09 a.u. and 1.55e+09 a.u. and 1.65e+09 a.u. |
| A375 | 330.52 h | 1.7e+08 a.u. and 1.97e+08 a.u. and 1.9e+08 a.u. and 1.69e+08 a.u. and 1.77e+08 a.u. and 1.68e+08 a.u. |
| MEL-JUSO | 366.52 h | 4.53e+07 a.u. and 5.64e+07 a.u. and 4.23e+07 a.u. and 4.47e+07 a.u. and 3.53e+07 a.u. and 4.21e+07 a.u. |

Sample 4
Target: Calcium/calmodulin-dependent protein kinase type II subunit alpha (CAMK2A, Homo sapiens, UniProt Q9UQM7)
Chain of UniProt Q9UQM7 (whole entry, looked up): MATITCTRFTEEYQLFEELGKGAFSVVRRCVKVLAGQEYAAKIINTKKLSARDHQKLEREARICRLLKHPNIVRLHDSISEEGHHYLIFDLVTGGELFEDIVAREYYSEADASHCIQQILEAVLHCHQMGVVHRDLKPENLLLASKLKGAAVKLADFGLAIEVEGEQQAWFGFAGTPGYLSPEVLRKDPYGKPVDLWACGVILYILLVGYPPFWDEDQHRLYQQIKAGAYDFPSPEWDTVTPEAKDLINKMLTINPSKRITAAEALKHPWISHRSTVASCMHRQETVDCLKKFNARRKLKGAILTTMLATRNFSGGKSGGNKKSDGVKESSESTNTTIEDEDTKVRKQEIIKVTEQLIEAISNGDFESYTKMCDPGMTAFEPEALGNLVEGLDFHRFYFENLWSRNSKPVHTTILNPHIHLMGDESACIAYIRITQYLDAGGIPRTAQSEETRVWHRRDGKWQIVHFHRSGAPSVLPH
Effect on: enzyme activity
Mode: inhibitor
Tested at: 10 µM
| SMILES | inhibition |
| --- | --- |
| O=C1c2ccc(O)cc2OCC1c1ccc(O)cc1 (centres unmarked) | 9% |
| COc1ccc2c(c1OC)CN1CCc3cc4c(cc3C1=C2)OCO4 | -3% |
| C[C@@H]1CC[C@]2(C(=O)O[C@@H]3O[C@H](CO)[C@@H](O)[C@H](O)[C@H]3O)CC[C@]3(C)C(=CC[C@@H]4[C@@]5(C)CC[C@H](O)[C@@](C)(CO)[C@@H]5CC[C@]43C)[C@@H]2[C@]1(C)O | -24% |
| COc1ccc2c(OC)c3ccoc3nc2c1OC | -15% |
| C=C[C@H]1[C@H](O[C@@H]2O[C@H](CO)[C@@H](O)[C@H](O)[C@H]2O)OC=C(C(=O)OC)[C@H]1C[C@@H]1c2cc(O)c(O)cc2CCN1C(C)=O | -31% |
| CCCCC/C=C\C/C=C\CCCCCCCC(=O)O[C@H]1CC[C@@]2(C)C(=CC[C@H]3[C@@H]4CC[C@H]([C@H](C)CCCC(C)C)[C@@]4(C)CC[C@@H]32)C1 | 20% |

Repeated from above (sample 2):
| SMILES | IC50 |
| --- | --- |
| Cc1cc2c(-c3cccc(O)c3)nc(-c3c(C)noc3C)cc2[nH]1 | ≥ 100 µM |
| CN(C)c1cccc(C(=O)N2CCC3(CC2)NC(=O)N(c2cccc(Cl)c2)N3)c1 | ≥ 100 µM |
